Assay results gathered from unrelated publications.
Each line is one published result; not all experiments were run side by side. Several values in a cell are separate wells, animals, samples, runs or records. Numbers after ± are the reported error.
ESR1: Estrogen receptor (ESR1, Homo sapiens, UniProt P03372)
APP: Amyloid-beta precursor protein (APP, Homo sapiens, UniProt P05067)
CASP4: Caspase-4 (CASP4, Homo sapiens, UniProt P49662)
T1: FMN riboswitch (Lactobacillus plantarum); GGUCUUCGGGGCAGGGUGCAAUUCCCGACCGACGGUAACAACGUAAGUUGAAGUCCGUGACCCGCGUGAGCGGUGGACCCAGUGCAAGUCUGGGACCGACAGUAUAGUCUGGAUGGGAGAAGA

Substance = C#CCO[C@@H]1CC[C@H](Cc2ccccc2)N(C(=O)n2ncc(C(O)(c3ccc(F)cc3)c3ccc(F)cc3)n2)C1; target = Diacylglycerol lipase-alpha (Mus musculus, UniProt Q6WQJ1); assay = enzyme activity, inhibitor; measurement = kinact; result = ~0.00117 s⁻¹
Substance = Cc1cc(NC(=O)c2cccc(NC(=O)/C=C/CN(C)C)c2)ccc1Nc1nccc(-c2cccnc2)n1; target = MAPK14 (Homo sapiens, UniProt Q16539); assay = target engagement in cells, inhibitor, chemoproteomics; test system = A-375; setting = 1 µM; measurement = inhibition; result = 3.9%
Substance = Ac-GPSLNPFDEED-NH2 (N-acetyl, C-amide); target = EHD1 EH domain, mouse; assay = ITC; test system = peptide; setting = pH 7.0, 20 °C, 0 mM KCl, first titration; measurement = ΔG; result = -7.95 kcal/mol
Substance = O=Cc1ccccc1; target = aldehyde oxidase F13 (Pseudomonas sp. MX-058); assay = substrate, peroxidase-coupled H2O2; setting = pH 7.0, 30 °C, added: O2 co-substrate; measurement = Km; result = 8.71 mM
Substance = CC(=O)C(=O)O; target = pyc (Rhizobium etli, UniProt Q2K340); assay = coupling of carboxylation to ATP hydrolysis, activator; setting = added: saturating acetyl-CoA; measurement = Ka; result = 0.25 mM
Substance = Cc1ccccc1-c1ccc(C(=O)N2CC3(C)CC2CC(C)(C)C3)cc1 (stereo not shown); target = Vasopressin V1a receptor (Mus musculus, UniProt Q62463); assay = blocker; test system = CD-1 mouse, septum; setting = subcutaneous, 3 mg/kg, 60 min; measurement = radiotracer uptake reduction; result = 30%
Substance = O=S(=O)(O)c1cc(N=C=S)ccc1CCc1ccc(N=C=S)cc1S(=O)(=O)O; target = SLC4A1 (Homo sapiens, UniProt P02730); assay = chloride exchange; test system = human red blood cells; setting = pH 9.0, 0 °C, pH-induced inward chloride gradient, added: external chloride 60 mM; measurement = ID50; result = 550 nM and 340 nM and 320 nM and 400 nM and 830 nM
Substance = CCN(c1ccc(Cl)cc1)S(=O)(=O)C1CC2OC1C(c1ccc(O)cc1)=C2c1ccc(O)cc1 (stereo not shown); target = ESR1; assay = reporter gene, antagonist; test system = HepG2; setting = added: estradiol 10 nM; how to read = reference: E2 response, negative is inverse agonism; measurement = efficacy; result = 7 ± 1%
Substance = COC(=O)CCC(C(=O)C=Cc1ccc(O)c(OC)c1)C(=O)C=Cc1ccc(O)c(OC)c1 (stereo not shown); target = APP; assay = Aβ aggregation, SDS-PAGE western blot, item: Aβ1-42 75-200 kDa band; setting = 30 µM, 24 h, 37 °C, added: Aβ1-42 10 µM; how to read = reference: DMSO; measurement = band density; result = 501 ± 204%
Substance = FEEPIYIEPIDFE; target = CSK (Homo sapiens, UniProt P41240); assay = substrate; test system = peptide; setting = concentration not given; how to read = reference: Glu or Asp Y-1 parent peptide; measurement = kcat/Km fold change; result = 2.6 fold
Substance = Nc1ccc(/N=N/c2ccccc2)c(N)n1; target = CASP4; setting = 33 µM, added: LEHD substrate; how to read = reference: solvent control; measurement = remaining activity; result = 23%
Substance = CC(=O)N[C@@H](C)C(=O)NCC(=O)N[C@@H](CO)C(=O)N[C@H]1CSSC[C@@H](C(=O)N[C@@H](Cc2ccc(O)cc2)C(=O)N[C@@H](CCC(=O)O)C(=O)N[C@H](C(=O)N[C@@H](CCC(=O)O)C(=O)NCC(=O)N[C@H](C(=O)NCC(=O)NCC(=O)NCC(=O)N[C@@H](CCCCNC(=O)CCCC(=O)NCCC(CCNC(C)(C)C(C)=NO)CCNC(C)(C)C(C)=NO)C(N)=O)[C@@H](C)O)[C@@H](C)O)NC(=O)[C@H](Cc2c[nH]c3ccccc23)NC(=O)[C@@H]2CSSC[C@H](NC(=O)[C@H](Cc3ccc(O)cc3)NC1=O)C(=O)N[C@@H](CO)C(=O)NCC(=O)N1CCC[C@H]1C(=O)N1CCC[C@H]1C(=O)N[C@@H](CCCNC(=N)N)C(=O)N[C@@H](Cc1ccccc1)C(=O)N[C@@H](CCC(=O)O)C(=O)N2 (stereo partly shown) [technetium-99m labelled]; target = MET (Homo sapiens, UniProt P08581); assay = saturation binding; test system = MKN-45; measurement = Bmax; result = 772000 ± 159000 receptors per cell
Substance = Ac-GRPCA-NH2 (N-acetyl, C-amide); target = Fibroblast growth factor 2, with pentraxin 3 (Homo sapiens, UniProt P09038); assay = binding to PTX3, competitor, surface plasmon resonance; test system = peptide; setting = added: 150 nM free FGF2; measurement = ID50; result = 80000 nM
Substance = Cc1cc2nc3c(=O)[nH]c(=O)nc-3n(C[C@H](O)[C@H](O)[C@H](O)COP(=O)(O)O)c2cc1C; target = T1, FMN riboswitch (Lactobacillus plantarum); assay = ITC; setting = pH 7.5, 25 °C, NaCl 100 mM; measurement = Kd; result = 51 nM
Substance = O=C1C=CCCC1; target = Enoyl-ACP reductase (Thermus thermophilus, UniProt P83818); setting = 24 h, pH 7, 30 °C, aerobic, added: 10 mM substrate, 15 mM NAD(P)H; measurement = conversion; result = 9 to 28%
Substance = O=C(Nc1nnc(S(=O)(=O)N2CCOCC2)s1)c1cccc(Br)c1; target = GPR32 (Homo sapiens, UniProt O75388); assay = β-arrestin recruitment, agonist, PathHunter; test system = CHO cells expressing GPR32; setting = concentration not given; how to read = reference: vehicle; measurement = efficacy; result = 43%
Substance = COC(=O)COc1ccc(C=CC(=O)CC(=O)C=Cc2ccc(O)c(OC)c2)cc1OC; target = APP; assay = Aβ aggregation, SDS-PAGE western blot, item: Aβ1-42 75-200 kDa band; setting = 30 µM, 24 h, 37 °C, added: Aβ1-42 10 µM; how to read = reference: DMSO; measurement = band density; result = 294 ± 25%
Substance = PDSRLLELHITMPFSSPM (LAGE-1 (83-100); sequence looked up); target = HLA-DPB1*0401; assay = peptide binding, biotinylated peptide competition; test system = peptide; how to read = reference: peptide over reference peptide, lower = stronger binding; measurement = relative IC50; result = 326
Substance = CC[C@H](C)[C@H](NC(=O)[C@@H](NC(=O)[C@@H](N)C(C)C)C(C)C)C(=O)N[C@H](C)C(N)=O; target = APP; assay = amyloid aggregation, inhibitor, fluorescence; setting = 4 µM, 24 h; measurement = inhibition; result = 14.6%
Substance = CC(C(=O)O)c1ccc(C(=O)c2ccccc2)s1 (stereo not shown); target = CASP4; setting = 33 µM, added: LEHD substrate; how to read = reference: solvent control; measurement = remaining activity; result = 4.32%
Substance = CC[C@H](C)[C@H](NC(=O)[C@H](CC(C)C)NC(=O)[C@H](CC(C)C)NC(=O)CNC(=O)[C@H](Cc1ccc(O)cc1)NC(=O)[C@H](CCCNC(=N)N)NC(=O)[C@H](CO)NC(C)=O)C(=O)N[C@@H](CCCCN)C(=O)N[C@@H](C)C(=O)N[C@@H](Cc1ccccc1)C(=O)N[C@@H](CO)C(=O)N[C@@H](CCSC)C(=O)N[C@H](C(=O)N[C@@H](C)C(=O)N[C@@H](C)C(=O)N[C@@H](CCC(=O)O)C(=O)N[C@H](C(=O)N[C@@H](C)C(=O)N[C@@H](CCCNC(=N)N)C(=O)N[C@@H](CCCNC(=N)N)C(=O)N[C@H](C(=O)N[C@@H](CCCNC(=N)N)C(=O)N[C@@H](CCC(=O)O)C(=O)N[C@@H](Cc1ccccc1)C(=O)N[C@@H](CCCNC(=N)N)C(N)=O)[C@@H](C)O)[C@@H](C)O)[C@@H](C)O; target = calmodulin 1-148 sites I and II; assay = calcium binding, Phe fluorescence titration; setting = 12 µM, pH 7.4, 22 °C, added: 6 µM calmodulin; measurement = apparent ΔG1; result = -6.61 ± 0.5 kcal/mol
Substance = CCN(c1ccccc1Cl)S(=O)(=O)C1CC2OC1C(c1ccc(O)cc1)=C2c1ccc(O)cc1 (stereo not shown); target = ESR1; assay = reporter gene, antagonist; test system = HepG2; setting = added: estradiol 10 nM; how to read = reference: E2 response, negative is inverse agonism; measurement = efficacy; result = 20 ± 4%
Substance = CC(C(=O)O)c1ccc(-c2ccccc2)c(F)c1 (stereo not shown); target = CASP4; setting = 33 µM, added: LEHD substrate; how to read = reference: solvent control; measurement = remaining activity; result = 5.78%
Substance = CSc1nc2c([nH]1)c(=S)n(C)c(=S)n2C; target = Nr3c1 (Rattus norvegicus, UniProt P06536); assay = reporter gene, antagonist, MMTV-luciferase; test system = T47D/A1-2; setting = 10 µM, 24 h, added: 5 nM dexamethasone; how to read = reference: maximal activity; measurement = remaining activity; result = 103%
Substance = CCCCC/C=C\S/C=C\CCCCCCCC(=O)O; target = Seed linoleate 13S-lipoxygenase-1 (Glycine max, UniProt P08170); assay = inhibitor; setting = pH 10.0, noncompetitive inhibition, added: linoleic acid; measurement = Kis; result = 36 µM

Excerpt of the above:
Substance = O=C1C=CCCC1; target = Enoyl-ACP reductase (Thermus thermophilus, UniProt P83818); setting = 24 h, pH 7, 30 °C, aerobic, added: 10 mM substrate, 15 mM NAD(P)H; measurement = conversion; result = 9 to 28%
Substance = C#CCO[C@@H]1CC[C@H](Cc2ccccc2)N(C(=O)n2ncc(C(O)(c3ccc(F)cc3)c3ccc(F)cc3)n2)C1; target = Diacylglycerol lipase-alpha (Mus musculus, UniProt Q6WQJ1); assay = enzyme activity, inhibitor; measurement = kinact; result = ~0.00117 s⁻¹
Substance = CC(=O)N[C@@H](C)C(=O)NCC(=O)N[C@@H](CO)C(=O)N[C@H]1CSSC[C@@H](C(=O)N[C@@H](Cc2ccc(O)cc2)C(=O)N[C@@H](CCC(=O)O)C(=O)N[C@H](C(=O)N[C@@H](CCC(=O)O)C(=O)NCC(=O)N[C@H](C(=O)NCC(=O)NCC(=O)NCC(=O)N[C@@H](CCCCNC(=O)CCCC(=O)NCCC(CCNC(C)(C)C(C)=NO)CCNC(C)(C)C(C)=NO)C(N)=O)[C@@H](C)O)[C@@H](C)O)NC(=O)[C@H](Cc2c[nH]c3ccccc23)NC(=O)[C@@H]2CSSC[C@H](NC(=O)[C@H](Cc3ccc(O)cc3)NC1=O)C(=O)N[C@@H](CO)C(=O)NCC(=O)N1CCC[C@H]1C(=O)N1CCC[C@H]1C(=O)N[C@@H](CCCNC(=N)N)C(=O)N[C@@H](Cc1ccccc1)C(=O)N[C@@H](CCC(=O)O)C(=O)N2 (stereo partly shown) [technetium-99m labelled]; target = MET (Homo sapiens, UniProt P08581); assay = saturation binding; test system = MKN-45; measurement = Bmax; result = 772000 ± 159000 receptors per cell
Substance = CC[C@H](C)[C@H](NC(=O)[C@@H](NC(=O)[C@@H](N)C(C)C)C(C)C)C(=O)N[C@H](C)C(N)=O; target = APP; assay = amyloid aggregation, inhibitor, fluorescence; setting = 4 µM, 24 h; measurement = inhibition; result = 14.6%
